# Assay results pooled from the literature.
# Protocols differ between the studies behind these lines. Values joined by “and” are separate records of one study, mostly repeats; a detail may differ.
# Organism: Trypanosoma cruzi
SMILES,assay,test system,setting,how to read,measurement,result
CC(C)C[C@@H]1NC(=S)NC1=O,,intracellular amastigotes,,relative to: LLC-MK2 CC50 over amastigote IC50,selectivity index,15.1 and > 15
"O=c1cc[s+]([O-])c2ccccc12 (single isomer, unassigned; (-))",intracellular amastigote growth,"U-937, Tulahuen, β-galactosidase transfected",72 h,,EC50,172 µM
Oc1ccccc1/C=C/c1ccc2ccccc2n1,,"Tulahuen, intracellular amastigotes",concentration not given,relative to: compound over benznidazole,activity ratio,2.5
O=C(CC1CCCCC1)Nc1cc2nc(-c3ccccc3)cn2cn1,,"3T3 host cells, Tulahuen beta-galactosidase",6 days,,EC50,6.27 µM
O=c1cc[s+]([O-])c2ccc(Cl)cc12 (racemic),intracellular amastigote growth,"U-937, Tulahuen, β-galactosidase transfected",72 h,,EC50,56.6 µM
O=C(Cc1ccccc1)Nc1cc2nc(-c3ccccc3)cn2cn1,,"3T3 host cells, Tulahuen beta-galactosidase",6 days,,EC50,14.2 µM
CCOC(=O)C(NC(=O)CN1C(=O)/C(=C/c2ccc([N+](=O)[O-])cc2)SC1=S)C(C)C (stereo not shown),parasite growth,"Vero, TULAHUEN","100 µM, intracellular, amastigote",,inhibition,21%
C[n+]1cc2c3c(ccc2c2ccc4cc5c(cc4c21)OCO5)OCO3,,,,relative to: THP-1 CC50 over T. cruzi EC50,selectivity index,10
COc1ccc(Nc2c(C#N)cnc3ccc(Cl)cc23)cc1,"cell viability, resazurin",Y strain trypomastigotes,added: hemin,relative to: without hemin over with hemin,IC50 fold reduction,~8 fold
C=C1C(=O)O[C@@H]2C[C@H](C)[C@@H]3C[C@H](OCc4cn(Cc5ccccc5)nn4)[C@H](OCc4cn(Cc5ccccc5)nn4)[C@@]3(C)C[C@H]12,,epimastigote,,relative to: CC50 splenocytes over IC50 epimastigotes,selectivity index,17.5
Cc1ccc2nc(-c3ccccc3)c(CN3CCCC3)n2c1,parasite growth,Tulahuen beta-galactosidase,concentration not given,,activity,inactive
C=C1C(=O)O[C@@H]2C[C@H](C)[C@@H]3C[C@H](O)[C@H](O)[C@@]3(C)C[C@H]12,,epimastigote,,relative to: CC50 splenocytes over IC50 epimastigotes,selectivity index,2.6
Cc1ccc2nc(-c3ccc(F)c(F)c3)c(CN3CCN(c4ccccc4)CC3)n2c1,,"3T3 host cells, Tulahuen beta-galactosidase",6 days,,EC50,1.6 µM
C#CCO[C@H]1C[C@H]2[C@@H](C)C[C@H]3OC(=O)C(=C)[C@H]3C[C@]2(C)[C@H]1OCC#C,,epimastigote,,relative to: CC50 splenocytes over IC50 epimastigotes,selectivity index,25.2
CNC(=O)c1c(C(C)C)oc2nc(N3CCCC3)ccc12,,"3T3 host cells, Tulahuen beta-galactosidase",6 days,,EC50,> 20 µM
CCC(=O)C[C@@H](O)C[C@@H](C)C[C@H](NC(=O)[C@@H]1C[C@H](C)CN1C(=O)/C=C/[C@@H](C)CC)C(=O)N[C@H](C(=O)NC(C)(C)C(=O)N[C@@H](CC(C)C)C(=O)N[C@@H](CC(C)C)C(=O)NC(C)(C)C(=O)NC(C)(C)C(=O)NCCC(=O)N[C@@H](C)CN(C)C)[C@H](O)C(C)C,,"C2C12, CA-I/72",,relative to: CC50 C2C12 over EC50 amastigotes,selectivity index,> 210

# Some of these lines once more:
SMILES,assay,test system,setting,how to read,measurement,result
C=C1C(=O)O[C@@H]2C[C@H](C)[C@@H]3C[C@H](O)[C@H](O)[C@@]3(C)C[C@H]12,,epimastigote,,relative to: CC50 splenocytes over IC50 epimastigotes,selectivity index,2.6
Cc1ccc2nc(-c3ccc(F)c(F)c3)c(CN3CCN(c4ccccc4)CC3)n2c1,,"3T3 host cells, Tulahuen beta-galactosidase",6 days,,EC50,1.6 µM
C[n+]1cc2c3c(ccc2c2ccc4cc5c(cc4c21)OCO5)OCO3,,,,relative to: THP-1 CC50 over T. cruzi EC50,selectivity index,10
